Assay results collected from several papers.
Protocols differ between the studies behind these lines. Values joined by “and” are separate records of one study, mostly repeats; a detail may differ. Numbers after ± are the reported error. ≈ marks a conversion by molar mass, not a printed value.

SMILES	test	test system	setting	scale	measurement	result
CN(C(=O)n1cnc(-c2cccnc2)c1)[C@H]1CC[C@H](O)CC1		Wistar rat, midbrain	oral, 10 mg/kg of BIA 10-2474, 24 h, single dose		concentration	18 ± 1.2 ng/g
CCc1c(-c2ccccc2)c(-c2ccccc2)nn1-c1ccccc1-c1cccc(OCC(=O)O)c1		Sprague-Dawley rat, fat	oral, 10 mg/kg, 4 h		concentration	1530 ng/g and 1010 ng/g
N#Cc1cccc(-c2ccc3ncc(-c4cc(F)cc(F)c4)c(N4CCC(N)CC4)c3c2)c1O		healthy male, faeces	oral, 20 mg, 120 h, 14C-labelled	baseline: dose	radioactivity recovered	39.7%
CCCn1cc(C)c2c(=O)[nH]c(-c3cc(S(=O)(=O)N4CCN(CC)CC4)ccc3OCC)nc21		human	concentration not given, treatment-emergent adverse event		blood pressure increased	16.7%
CCN1CCN(Cc2ccc(NC(=O)c3ccc(C)c(NC(=O)c4cncc(-c5cccs5)c4)c3)cc2C(F)(F)F)CC1		C57BL/6 mice, epithelial lining fluid	intraperitoneal, 15 mg/kg		dose-normalised AUC	0.33 kg·µg·h/mL/mg
CNC(=O)c1ccc(-c2cnc3ncc(Cc4ccc5ncccc5c4)n3n2)cc1F		Japanese patients	oral, 400 mg, any grade		blood ALP increased dose reduction/interruption	1%
Cc1cc(-c2nnc(N)nc2-c2ccc(F)cc2)cc(Cl)n1	refers to: Vomiting	other solid tumours, post-IO	oral, 100 mg once daily, all grades		patients with treatment-related AE	33.3%
Nc1ncn([C@H]2C[C@H](O)[C@@H](CO)O2)c(=O)n1		C57BL/6 mice, female	oral, 0.4 mg/kg		oral bioavailability	~38%
C=CC[C@@H]1/C=C(\C)C[C@H](C)C[C@H](OC)[C@H]2O[C@@](O)(C(=O)C(=O)N3CCCC[C@H]3C(=O)O[C@H](/C(C)=C/[C@@H]3CC[C@@H](O)[C@H](OC)C3)[C@H](C)[C@@H](O)CC1=O)[C@H](C)C[C@@H]2OC		kidney transplant recipients, CYP3A5*1 carriers, whole blood	oral, dose not given, limited sampling		dose-normalized AUC(0-12h)	94.4 ng·h/mL
O=C(O)CCCCCCCCCCCCCCC(=O)O		human, plasma	endogenous baseline diurnal	baseline: daily mean concentration	relative peak deviation	59.9 ± 9.8%
Cc1nc2ccc(OCc3ccc(C(F)(F)F)cc3)cc2[nH]1		Balb/c mice male	oral, 10 mg/kg	baseline: intravenous 1 mg/kg	oral bioavailability	34.8%
COc1ncc(-c2nc3c(n2C(C)C)[C@H](c2ccc(Cl)cc2)N(c2cc(Cl)cn(C)c2=O)C3=O)c(OC)n1		human patients, plasma	oral, 25 mg, high-dose arm, cycle 1 day 1		median half-life	31.1 h
C[C@H]1CN(C(=O)CC#N)[C@]12CCN(c1ncnc3[nH]ccc13)C2	IL-4 secretion, inhibitor	human whole blood			IC50 corrected by blood/plasma ratio	0.024 µg/mL
C[C@H]1O[C@@H](O[C@H]2[C@@H](O)C[C@H](O[C@H]3[C@@H](O)C[C@H](O[C@H]4CC[C@@]5(C)[C@H](CC[C@@H]6[C@@H]5C[C@@H](O)[C@]5(C)[C@@H](C7=CC(=O)OC7)CC[C@]65O)C4)O[C@@H]3C)O[C@@H]2C)C[C@H](O)[C@@H]1O	refers to: diarrhoea	healthy men	oral, dose not given, 8 days, treatment-emergent, crossover trial		subjects with adverse event	0%
N#Cc1ccc(-c2cnc3ccc(-c4ccc(C(=O)N5CCOCC5)cc4)cn23)cc1	refers to: QTcF interval	healthy volunteers	oral, 10 mg, fasted, time-averaged		placebo-corrected change from baseline	4.3 ms
C[C@H]1O[C@@H](O[C@H]2CC[C@@]3(C)[C@@H](CC[C@]4(C)[C@@H]3C=C[C@]35OC[C@@]6(CCC(C)(C)C[C@H]63)[C@@H](O)C[C@]54C)[C@]2(C)CO)[C@H](O)[C@@H](O[C@@H]2O[C@H](CO)[C@@H](O)[C@H](O)[C@H]2O)[C@H]1O	UHPLC-MS/MS	mouse, plasma	oral, 50 mg/kg, 8 h		plasma concentration	0 ng/mL
C[C@@H](NC(=O)N1C(=O)[C@H](Cc2ccnc(N)c2)[C@H]1C(=O)O)C1CCCCC1	UPLC-MS/MS	healthy adult Chinese volunteers, plasma	continuous intravenous infusion, 1.5 mg/kg/h, day 6 of 5-day infusion, mean		elimination rate constant	0.000138 s⁻¹
CC(C)(C(=O)N1CCOc2c(C#N)cncc2C1)C(F)F		human, both sexes	oral, 10 mg single dose		subjects with tachycardia TEAE	0%
CCc1cc(C(=O)NC)c2nccc(N3CCc4c(cc(Cn5ccnc5)cc4-c4cn(C)nc4C(F)(F)F)C3=O)c2c1		Sprague Dawley rat	oral, 100 mg/kg once daily, 7 days		liver weight	12.2 ± 0.388 g
O=C(CCCCCCC(=O)Nc1ccc(CC[18F])cc1)NO		athymic nu/nu male mice, LNCaP xenograft, large intestine	intravenous, 2 h		tissue uptake	5.1 ± 1.8 %ID/g

SMILES	test	test system	setting	scale	measurement	result
COc1ccc2c(c1)CN(C(=O)CCN1CCC(Cc3ccccc3)CC1)CC[S@@+]2[O-]		beagle dog, male	intravenous, 8 mg/kg, day 1, 14-day toxicity study		blood concentration	6440 ± 2110 ng/mL
CNCc1ccc(-c2[nH]c3cc(F)cc4c3c2CCNC4=O)cc1		human patients	oral, 480 mg twice daily, all grades		AST/ALT increased incidence	33.3%
COc1cc(OC)cc(N(CCNC(C)C)c2ccc3ncc(-c4cnn(C)c4)nc3c2)c1					pKa1	9.2
Cc1ccc([C@@H]2O[C@H](CO)[C@@H](O)[C@H](O)[C@H]2O)cc1Cc1ccc(-c2ccc(F)cc2)s1		Japanese type 2 diabetes patients	25 mg, day 5, 24 h urine collection	baseline: baseline	urinary chloride excretion change	13.8 mEq
C=CC(=O)NC1CCN(c2ncc3ncnc(Nc4ccc(Oc5ccc6c(c5)ncn6C)c(C)c4)c3n2)CC1		human, male	oral, 240 mg, treatment-related adverse event		participants with nausea	6.3%
Cn1nc2c(=O)n(C3CC3)cnc2c1[C@](O)(c1cnc(C(F)(F)F)c(Cl)c1)C(F)(F)F		humanized SCID mouse, uninfected, blood	oral, 30 mg/kg single dose		AUC0-last	296 µM·h
C=CC(=O)NC1CCN(c2ncc3ncnc(Nc4ccc(Oc5ccc6c(c5)ncn6C)c(C)c4)c3n2)CC1	shake flask	aqueous buffer	24 h, pH 3.6, 37 °C		aqueous solubility	23 µg/mL (≈ 42.9 µM)
CNCCOC12CC3(C)CC(C)(CC(Cn4ncc(-c5ccc(N6CCc7cccc(C(=O)Nc8nc9ccccc9s8)c7C6)nc5C(=O)O)c4C)(C3)C1)C2		beagle dog, male, anaesthetised	intravenous bolus, 0.03 mg/kg, 5 min	baseline: baseline	dP/dt at 50 change	13%
N=C(N)NCCNC(=O)C1(Nc2ccccc2)CCN(Cc2ccccc2)CC1		male Sprague-Dawley rats, plasma	intravenous, 2.5 mg/kg		mean residence time	0.1 h
N#Cc1ccc2c(c1)[C@H]1CCCN(C(=O)c3ccc4[nH]cnc4c3)[C@H]1C2		human	40 mg, day 15		maximum ACTH level	17.4 pmol/L
CC#CC(=O)N1CCC[C@H]1c1nc(-c2ccc(C(=O)Nc3ccccn3)cc2)c2c(N)nccn12	noncompartmental analysis	human, control subjects, plasma	oral, 50 mg, geometric mean		unbound AUC(0-t)	3.2 ng·h/mL
COc1cc2nccc(Oc3ccc(NC(=O)c4cc5c(n(-c6ccccc6)c4=O)CCCC5=O)nc3)c2cc1OC		human, relapsed/refractory AML	oral, 3 mg once daily, grade ≥3, any causality		patients with decreased platelet	10%
Cc1ccc(Sc2ccccc2N2CCNCC2)c(C)c1	refers to: Nausea	healthy adult men	oral, 5 mg single dose, 10 day		participants with TEAE	0%
N#C[C@@]1(c2ccc3c(N)ncnn23)O[C@H](CO)[C@@H](O)[C@H]1O		rat plasma	1 to 100 µM, mean over concentrations		unbound fraction	0.941
CCO[C@H]1CCN(Cc2c(OC)cc(C)c3[nH]ccc23)[C@H](c2ccc(C(=O)O)cc2)C1		healthy volunteers, plasma	oral, 200 mg single dose, median		unbound Tmax	2.25 h
O=C(O)CCC(=O)O.[2H]C([2H])([2H])Oc1cc(C)c2[nH]ccc2c1CN1CC[C@@H](C2CC2)C[C@H]1c1ccc(C(=O)O)cc1	multiple ascending dose	healthy Chinese subjects	100 mg twice daily		subjects with allergic dermatitis TEAE	0%
O=C(O)CCCOc1ccc(F)cc1-c1cc(-c2ccccc2C(F)(F)F)n(-c2ccccc2)n1		Crl:CD(SD) rat, female, serum	iv, 25 µg/kg, 14 days		chloride	106 ± 1.5 mEq/L
O=C1CCCCN1c1ccc(CO[C@@H]2COc3nc([N+](=O)[O-])cn3C2)cc1F		aqueous buffer	pH 7.4		aqueous solubility	31 µg/mL (≈ 79.4 µM)
CCN1/C(=C/C(C)=O)Sc2ccc(F)cc21		cynomolgus monkey	oral, 10 mg/kg, 4 h post-dose		QTc interval (Bazett)	328 ± 9 ms

For quick reference, copied from above:
SMILES	test	test system	setting	scale	measurement	result
O=C(CCCCCCC(=O)Nc1ccc(CC[18F])cc1)NO		athymic nu/nu male mice, LNCaP xenograft, large intestine	intravenous, 2 h		tissue uptake	5.1 ± 1.8 %ID/g
COc1ccc2c(c1)CN(C(=O)CCN1CCC(Cc3ccccc3)CC1)CC[S@@+]2[O-]		beagle dog, male	intravenous, 8 mg/kg, day 1, 14-day toxicity study		blood concentration	6440 ± 2110 ng/mL
CNCc1ccc(-c2[nH]c3cc(F)cc4c3c2CCNC4=O)cc1		human patients	oral, 480 mg twice daily, all grades		AST/ALT increased incidence	33.3%
